Measurements gathered from unrelated publications.
Compare with care: the assays were run in different laboratories.
Sequence of UniProt P11388 (whole entry, looked up): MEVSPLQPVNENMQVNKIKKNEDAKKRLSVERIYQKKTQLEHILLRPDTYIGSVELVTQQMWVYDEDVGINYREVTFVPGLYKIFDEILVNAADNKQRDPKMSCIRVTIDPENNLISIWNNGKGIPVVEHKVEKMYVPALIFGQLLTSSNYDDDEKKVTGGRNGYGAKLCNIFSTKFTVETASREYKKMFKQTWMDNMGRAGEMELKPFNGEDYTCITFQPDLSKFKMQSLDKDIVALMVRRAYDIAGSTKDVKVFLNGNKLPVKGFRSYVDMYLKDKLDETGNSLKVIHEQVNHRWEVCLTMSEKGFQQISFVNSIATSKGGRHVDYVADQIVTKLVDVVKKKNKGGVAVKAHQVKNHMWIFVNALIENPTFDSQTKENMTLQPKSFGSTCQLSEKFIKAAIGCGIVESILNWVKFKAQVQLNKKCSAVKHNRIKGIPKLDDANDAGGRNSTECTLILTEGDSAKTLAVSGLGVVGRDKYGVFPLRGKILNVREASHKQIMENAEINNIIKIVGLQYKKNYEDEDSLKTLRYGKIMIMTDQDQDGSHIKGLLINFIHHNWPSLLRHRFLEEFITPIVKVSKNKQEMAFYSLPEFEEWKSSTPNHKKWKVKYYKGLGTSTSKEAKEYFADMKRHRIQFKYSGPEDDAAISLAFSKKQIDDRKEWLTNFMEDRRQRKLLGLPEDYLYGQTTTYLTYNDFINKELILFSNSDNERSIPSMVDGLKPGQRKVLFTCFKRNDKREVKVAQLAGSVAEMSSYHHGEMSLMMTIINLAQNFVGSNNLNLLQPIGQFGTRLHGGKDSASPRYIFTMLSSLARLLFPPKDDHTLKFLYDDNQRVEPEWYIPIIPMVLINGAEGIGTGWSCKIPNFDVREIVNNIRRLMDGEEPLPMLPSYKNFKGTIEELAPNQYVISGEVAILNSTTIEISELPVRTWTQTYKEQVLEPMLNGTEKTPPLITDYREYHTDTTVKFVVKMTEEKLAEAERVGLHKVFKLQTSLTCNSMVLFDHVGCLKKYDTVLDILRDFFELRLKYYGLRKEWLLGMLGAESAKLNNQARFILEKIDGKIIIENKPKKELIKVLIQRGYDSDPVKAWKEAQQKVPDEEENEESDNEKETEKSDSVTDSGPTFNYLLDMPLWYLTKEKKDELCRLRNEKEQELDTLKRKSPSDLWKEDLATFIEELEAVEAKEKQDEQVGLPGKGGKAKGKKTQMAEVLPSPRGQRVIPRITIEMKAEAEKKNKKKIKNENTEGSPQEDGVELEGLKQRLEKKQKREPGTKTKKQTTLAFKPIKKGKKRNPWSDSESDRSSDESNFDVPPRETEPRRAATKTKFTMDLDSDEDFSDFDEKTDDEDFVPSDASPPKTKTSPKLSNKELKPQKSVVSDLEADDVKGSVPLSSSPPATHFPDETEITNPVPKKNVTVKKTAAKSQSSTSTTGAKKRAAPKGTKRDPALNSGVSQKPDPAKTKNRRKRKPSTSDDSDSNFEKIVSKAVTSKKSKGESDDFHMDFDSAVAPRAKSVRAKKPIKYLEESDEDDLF
Sequence of UniProt Q8NER1 (whole entry, looked up): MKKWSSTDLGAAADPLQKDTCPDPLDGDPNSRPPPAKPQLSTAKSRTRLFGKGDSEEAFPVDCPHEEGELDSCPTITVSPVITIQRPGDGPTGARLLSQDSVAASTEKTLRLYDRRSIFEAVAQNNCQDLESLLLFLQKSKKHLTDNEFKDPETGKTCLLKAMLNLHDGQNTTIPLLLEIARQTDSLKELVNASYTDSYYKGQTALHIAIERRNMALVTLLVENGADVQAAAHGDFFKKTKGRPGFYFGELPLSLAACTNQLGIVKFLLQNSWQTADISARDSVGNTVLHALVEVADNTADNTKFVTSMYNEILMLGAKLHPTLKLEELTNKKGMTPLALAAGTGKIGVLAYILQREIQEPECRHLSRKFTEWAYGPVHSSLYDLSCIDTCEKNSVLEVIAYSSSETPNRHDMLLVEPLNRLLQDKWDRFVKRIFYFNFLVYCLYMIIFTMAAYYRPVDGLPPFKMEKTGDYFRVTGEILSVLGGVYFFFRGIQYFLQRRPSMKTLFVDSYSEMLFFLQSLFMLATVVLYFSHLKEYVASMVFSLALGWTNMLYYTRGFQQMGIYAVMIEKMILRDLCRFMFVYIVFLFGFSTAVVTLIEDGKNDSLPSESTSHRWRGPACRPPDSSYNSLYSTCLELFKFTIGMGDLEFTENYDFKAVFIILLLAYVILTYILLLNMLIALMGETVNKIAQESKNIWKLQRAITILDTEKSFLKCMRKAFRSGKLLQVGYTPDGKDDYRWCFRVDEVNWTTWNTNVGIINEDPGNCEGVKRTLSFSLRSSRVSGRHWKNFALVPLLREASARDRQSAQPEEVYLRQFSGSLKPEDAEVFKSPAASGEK

| SMILES | tested on | assay | test system | conditions | scale | endpoint | result |
| --- | --- | --- | --- | --- | --- | --- | --- |
| N#CCC1CCN(c2nc(Nc3ccc(N4CCC(O)CC4)cc3)c3c(=O)[nH]ncc3n2)CC1 |  | vs placebo, Olink multiplex | human, serum | 40 mg, day 15, unit not given | baseline: placebo | GIF level difference | 1.35 |
| C=C(C)[C@]12C[C@@H](C)[C@@]34O[C@](Cc5ccccc5)(O[C@@H]1[C@@H]3C=C(COC(=O)Cc1ccc(O)c(OC)c1)C[C@]1(O)C(=O)C(C)=C[C@@H]41)O2 | Transient receptor potential cation channel subfamily V member 1 (TRPV1, Homo sapiens, UniProt Q8NER1) | K+ efflux, agonist, BRET | HEK293T |  |  | EC50 | 7.76 nM |
| COC(=O)Nc1c(N)nc(-c2nn(Cc3ccccc3F)c3ncc(F)cc23)nc1N |  |  | healthy white men | dose not given, day 13, 312 h, LS mean difference, with: sildenafil 25 mg | baseline: placebo | seated DBP maximum decrease | -1.63 mmHg |
| OC[C@H]1O[C@@H](O[C@@H]2[C@@H](O)[C@H](O[C@@H]3[C@@H](O)[C@H](O[C@@H]4[C@@H](O)[C@H](O[C@@H]5[C@@H](O)[C@H](O[C@H]6[C@H](O)[C@@H](CO)OC(O)[C@@H]6O)O[C@H](CO)[C@H]5O)O[C@H](CO)[C@H]4O)O[C@H](CO)[C@H]3O)O[C@H](CO)[C@H]2O)[C@H](O)[C@@H](O)[C@@H]1O (some centres unmarked) | Bacteroides thetaiotaomicron | binding, ITC |  | pH 7.0, 25 °C, distal domain |  | ΔH | -46.9 kcal/mol |
| COc1cc([C@@H]2c3cc4c(cc3[C@@H](O[C@@H]3O[C@@H]5CO[C@@H](C)O[C@H]5[C@H](O)[C@H]3O)[C@H]3COC(=O)[C@H]23)OCO4)cc(OC)c1O | DNA topoisomerase 2-alpha (TOP2A, Homo sapiens, UniProt P11388) | DNA cleavage |  | 200 µM, replicate 1 |  | linear DNA | 35.3% |
| Fc1ccccc1Cc1nc(-c2nc(C(F)(F)F)n[nH]2)cn2ccnc12 |  | item: Dizziness | healthy humans | oral, 10 mg, fed, single dose |  | subjects with adverse events | 7.7% |
| COC(=O)Nc1c(N)nc(-c2nn(Cc3ccccc3F)c3ncc(F)cc23)nc1N |  |  | humans, plasma | 10 mg once daily, phase I DDI study, with: warfarin |  | AUC(0-tau) at steady state | 5330 ng·h/mL |
| CC1COc2ccccc2N1C(=O)C(Cl)Cl (centres unmarked) | carboxylesterase | substrate depletion | rhesus monkey, female, liver microsomes | 5 µM, pH 7.4, without NADPH |  | intrinsic clearance | 800 µL/min/mg |
